Results of several laboratories.
Parts stem from different laboratories: compare values within a part only. Substitutions count along the parent as printed.

Sample 1
Target: Hepatocyte nuclear factor 3-alpha (Foxa1, Mus musculus, UniProt P35582, residues 1-468, full length assumed)
Sequence of UniProt P35582 (whole entry, looked up): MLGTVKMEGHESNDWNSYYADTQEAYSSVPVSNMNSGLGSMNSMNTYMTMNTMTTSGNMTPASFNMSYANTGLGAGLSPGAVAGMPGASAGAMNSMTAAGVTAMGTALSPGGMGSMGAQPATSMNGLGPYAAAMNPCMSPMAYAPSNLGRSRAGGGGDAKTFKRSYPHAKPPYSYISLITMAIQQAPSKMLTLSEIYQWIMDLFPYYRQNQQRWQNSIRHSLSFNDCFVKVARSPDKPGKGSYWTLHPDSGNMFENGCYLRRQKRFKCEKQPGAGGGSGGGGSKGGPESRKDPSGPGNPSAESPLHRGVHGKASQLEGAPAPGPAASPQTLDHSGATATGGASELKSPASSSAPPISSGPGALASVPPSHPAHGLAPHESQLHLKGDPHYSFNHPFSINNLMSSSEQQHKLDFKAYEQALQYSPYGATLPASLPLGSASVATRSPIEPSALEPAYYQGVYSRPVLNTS
Technique: EMSA with sequencing
Form: double-stranded DNA, one strand shown
Medium: in vitro
Tested at: 10 and 20 nM
Setting: whole designed probe, mean of two concentrations, ends assumed
Baseline: negative control set to 0
Reading: higher = stronger binding
Quantity: normalised bound fraction
Shared flanks, not repeated: GTGAGCGGTGCCCATTGATGGGGAAC … TTTCACTGGGATCGTGGGGAC
Oligonucleotide = GTCCCCTTGTGCGTAGATGGTGGCAAATGATTGTTTGCCAAGCCTTCTACCTCCTCCCTTTCTGTGTTCCATTGAGATCATGGAAATGCAAAGTAAATAGCCATGGAGTAAAATGCCTCCGAGAGTATTTATTTAAGAGTATTGTTCCAGGATATGCACGAAGATAAAGACTTTATGTAATGAATGAGTGACT; value = 0.417 ratio
Oligonucleotide = TCGCATATAACTCTTCTACAGAGGAATCTAGACTTGGTGAATGCACCATTGTTCTCCGAAGGGCCCCTCCACCTAAAACGGGGCAGGAACCAATGTAATCTCCGGCGTTAGTGGGTCAGGTAAGTGATCCTGAGGCATAGGGGGTGAGGTAGCGTGAGTTAGCATCAGGCTCATATAGAGGACGCAATAAAGA; value = -0.079 ratio
Oligonucleotide = ATCTTCCCCCTCTTCCTTGCCCCACCAGCTCACCTTCCCGGGTATATTGGAGATAGGAAATTAATATAAGCCGGCATTCGTTAACCCTCTTCACGCGCATACTGCTGTTTACTTTGGATGAATCATGGTCCTTTGGCGACGCCAGGCTCCGGGAGAGCAAAGCACCGTGTCAGGGCCATGATCCGGGGTGGCC; value = 0.347 ratio
Oligonucleotide = GCTCACGCAGAAATGCATTGGAATGTCAGGAAATTGTGTGTATTTGATGTATTTTACCTGTTGCCTAGAGAGCCCACACAGTGATGCAGGTGCCTGTTTACATTGGCTGATTGCCCGGACTTTGGAAATGCAATTATCCCCCACCACCCCCTCAGCCACTTTCTCCAGCGGACTAGGAGGGGCTGAGTGGTGC; value = 0.249 ratio
Oligonucleotide = ATCTTCCCCCTCTTCCTTGCCCCACCAGCTCACCTTCCCGGGTCAAAGTAAACAAGTGTTTACTTTGAAGCCGGCATTCGTTAACCCTCTTCTGGCGCAAACTGCACATTGGTCTGGATGAATCATGGTCCTTTGGCGACGCCAGGCTCCGGGAGAGCAAAGCACCGTGTCAGGGCCATGATCCGGGGTGGCC; value = 0.424 ratio

Sample 2
Target: CCNB3, cyclin fold, Cln2 fusion (human)
Technique: yeast growth competition, sequencing
Medium: yeast
Setting: weak parent motif
Baseline: not given
Reading: higher = stronger binding
Quantity: normalised enrichment score
Starting sequence: GMNC docking peptide (human); KNAKRNLSSEFAN; partner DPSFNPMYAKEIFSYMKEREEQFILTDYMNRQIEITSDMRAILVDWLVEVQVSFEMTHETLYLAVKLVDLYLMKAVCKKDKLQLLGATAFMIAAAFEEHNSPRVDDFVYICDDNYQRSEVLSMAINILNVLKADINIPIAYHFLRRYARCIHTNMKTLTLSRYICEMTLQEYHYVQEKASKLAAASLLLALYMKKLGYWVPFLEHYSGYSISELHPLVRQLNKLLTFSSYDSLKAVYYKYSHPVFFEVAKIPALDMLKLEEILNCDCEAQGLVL
Substitution = S9D; value = 0.502
Substitution = K4V; value = 0.121
Substitution = N6M; value = 0.128
Substitution = L7T; value = 0.375
Substitution = A3P; value = -0.75
Substitution = S8D; value = 0.144
Substitution = F11V; value = 0.122
Substitution = S8I; value = 0.29
Substitution = A3M; value = 0.297
Substitution = R5M; value = 0.222
Substitution = F11E; value = 0.209
Substitution = L7F; value = 0.0597
Substitution = N6W; value = 0.343
Substitution = L7Q; value = -0.0338
Substitution = F11K; value = 0.319
Substitution = S9I; value = 0.207
Substitution = A3K; value = 0.278
Substitution = N2E; value = 0.559
Substitution = L7G; value = 0.147
Substitution = S9W; value = 0.47
Substitution = N6K; value = 0.105
Substitution = E10F; value = 0.143
Substitution = F11C; value = 0.209
Substitution = S8L; value = 0.77

Sample 3
Target: Ras GTPase-activating protein-binding protein 1, full length (G3BP1, Homo sapiens, UniProt Q13283)
Sequence of UniProt Q13283 (whole entry, looked up): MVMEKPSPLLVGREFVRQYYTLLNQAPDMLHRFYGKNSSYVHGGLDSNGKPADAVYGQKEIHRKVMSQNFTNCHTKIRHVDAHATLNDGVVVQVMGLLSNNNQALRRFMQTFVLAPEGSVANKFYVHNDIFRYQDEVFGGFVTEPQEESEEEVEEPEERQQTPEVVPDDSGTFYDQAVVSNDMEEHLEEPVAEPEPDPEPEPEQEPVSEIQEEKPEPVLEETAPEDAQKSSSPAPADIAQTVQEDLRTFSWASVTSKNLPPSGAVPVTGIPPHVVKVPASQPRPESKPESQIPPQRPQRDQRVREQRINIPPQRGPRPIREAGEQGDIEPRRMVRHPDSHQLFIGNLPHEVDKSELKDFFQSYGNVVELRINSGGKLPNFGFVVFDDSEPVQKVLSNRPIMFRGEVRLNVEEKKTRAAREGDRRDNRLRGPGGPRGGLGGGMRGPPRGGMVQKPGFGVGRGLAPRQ
Technique: RNA Bind-n-Seq
Form: RNA
Medium: in vitro
Tested at: 200 nM
Setting: whole 134-nt RNA, ends assumed
With: 150 mM KCl
Baseline: input library
Reading: higher = stronger binding
Quantity: log2 enrichment
Shared flanks, not repeated: GGGAGUUCUACAGUCCGACGAUC … UGGAAUUCUCGGGUGUCAAGG
Oligonucleotide = GUCCUGUGCUACACAUCGUAUGUACCGAAUCGGCCCCCCGGCCCCCCGGGGCCCCCCGGAAAGUAUUAUGUUACGCCGUUCGGAUCUGCA; value = -0.169
Oligonucleotide = UGGCCCUGGUGGCAUGCGGGGAGGAAGAGGUGGCCUCAUGGAUCGUGGUGGUCCCGGUGGAAUGUUCAGAGGUGGCCGUGUUGGAGACAG; value = 0.0313
Oligonucleotide = AAGUCCUGUGCUACACAUCGUAUGUACCGAAUCGGGGCCCCGGCCCCGGGCCCCGGGAAAGUAUUAUGUUACGCCGUUCGGAUCUGCACU; value = -0.923
Oligonucleotide = UGAAAUGUUUUUUUCUCUGUCUUCUUUCAGGUCUUUGUUGAGUAUGCAAAUGCUGGUGAUUCCAAAGCUGCGCAGAAAUUACUGACUGGA; value = -1.38
Oligonucleotide = ACCAUGCAGGUGGGCAUCUUUGGGAAGUGGGGCAAGGGGGGGAUAGGGAGGGGGGUAACACUUUGGGAACAGGUGGUCCCAGCUCGUUUC; value = 1.32
Oligonucleotide = CCCAGACAACACGCACCCACACAGACACAGAGGGAAGGGGUUGGGAUGGGGACAGGGUGCACAGCAGGGCGGGGUAGGACCCCAGCCCCU; value = 1.9
Oligonucleotide = AAGUCCUGUGCUACACAUCGUAUGUACCGAAUCGGUUUGGAAAAAAAGGAAAAAGGAAAGUAUUAUGUUACGCCGUUCGGAUCUGCACUU; value = -1.13
Oligonucleotide = CCUCAAGUCCUGUGCUACACAUCGUAUGUACCGAAUCGGAAGGAAGGAAGGGAAAGUAUUAUGUUACGCCGUUCGGAUCUGCACUUCCAG; value = 0.0354
Oligonucleotide = UAACUUUAGAGGAGGAUCUGAUCGAUAUGGCAGUGGACGUGGAUUUGGGGAUGGCUAUAAUGGGUAUGGAGGAGGACCUGGAGGUGGCAA; value = 0.445

Sample 4
Target: ABI1, truncated, D143A, DHFR fusion (Arabidopsis thaliana)
Technique: DHFR PCA, deep sequencing
Medium: yeast
Setting: methotrexate growth selection, single substitutions
With: (+)-ABA 710 µM
Baseline: wild-type fitted maximum
Reading: higher = stronger binding
Quantity: relative binding score
Starting sequence: PYL1, truncated, DHFR fusion (Arabidopsis thaliana); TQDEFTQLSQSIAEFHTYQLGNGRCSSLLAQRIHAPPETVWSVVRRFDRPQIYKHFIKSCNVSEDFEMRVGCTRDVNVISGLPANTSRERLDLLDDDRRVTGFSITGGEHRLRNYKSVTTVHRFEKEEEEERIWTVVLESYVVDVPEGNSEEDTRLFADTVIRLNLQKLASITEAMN
Substitution = T17R; value = 101%
Substitution = A158S; value = 90.4%
Substitution = S104D; value = 24.5%
Substitution = I57E; value = 6.32%
Substitution = L112E; value = 14.4%
Substitution = T6G; value = 108%
Substitution = D75V; value = 102%
Substitution = H110A; value = 36%
Substitution = D95H; value = 85.7%
Substitution = V143L; value = 86%
Substitution = P50C; value = 84.5%
Substitution = R99C; value = 99.8%
Substitution = F5E; value = 99.1%
Substitution = N114W; value = 39.5%
Substitution = E128A; value = 107%
Substitution = E151C; value = 97.4%
Substitution = T1D; value = 102%
